Measured values of several laboratories.
Protocols differ between the studies behind these lines. Several values in a cell are separate wells, animals, samples, runs or records. Numbers after ± are the reported error.

SMILES | test | system | setting | how to read | measurement | value
C[C@H]1C[C@H]2CSC(N)=N[C@@]2(c2nc(NC(=O)c3ccc(OC(F)F)cn3)cs2)CO1 | measured: Aβ1-40 | healthy adults, plasma | 40 mg single dose, 4 h post-dose | reference: placebo | percent change from baseline | -52.9%
CC(C)[C@H](C(=O)Nc1ccc(C(=O)NO)cc1)c1ccccc1 | volumetric MRI | human | dose not given, 1512 days |  | tumour volume change | 92.4%
COc1ccc(-c2cncc(N[C@@H](C)c3cccc(NC(=O)c4cncc(C)c4)c3)n2)cc1OC | measured: rno-miR-33-5p | rat SU5416/hypoxia model, lung | dose not given, unit not given | reference: SU5416/hypoxia vehicle | delta delta Ct | 1.37
COc1nc(NCc2cn(-c3ccc(NC(=O)c4ccc([N+](=O)[O-])cc4)cc3)nn2)nc(OC)n1 | cell viability, MTT | normal colonocytes, rat | 72 h |  | IC50 | 9.79 ± 0.85 nM
Cc1c(C)n(Cc2cccc(OC(C)(C)C(=O)O)c2)c2ccc(C(=O)N[C@@H](C)c3ccc(C(C)(C)C)cc3)cc12 | indirect calorimetry | mice, diet-induced obese | dose not given, average over 72 h, end of treatment |  | VCO2 | 75.9 ± 7.04 mL/min/kg
Cc1n[nH]c2ccc(-c3cc(OC[C@@H](N)Cc4ccccc4)cnc3-c3ccoc3)cc12 | kinase binding, competitor, MIB/MS competition, measured: CKA2 | Candida albicans cell lysate | 1 µM | reference: DMSO | log2 fold change | 0.026
CCc1cc(-c2noc(-c3cc(OC)nc(C4CCCC4)c3)n2)cc(C)c1OC[C@@H](O)CO |  | Wistar rats, blood | oral gavage, 0.1 10 mg/kg |  | maximal lymphocyte count reduction | 2570 ± 90 lymphocytes/µL
CN[C@@H]1C[C@H]2O[C@@](C)([C@@H]1OC)n1c3ccccc3c3c4c(c5c6ccccc6n2c5c31)C(=O)NC4 |  | 5TGM1, mouse |  |  | apoptosis-inducing concentration | > 1 µM
O=C1Nc2ccccc2C1=Cc1ccccn1 | platelet aggregation | platelet-rich plasma | 10 µM, together with: ADP 5 µM |  | inhibition | 55.6%
N#Cc1ccc2c(-c3ccncc3)c(-c3ccc(F)cc3)nn2c1 | kinase binding, competitor, MIB/MS competition, measured: YCK2 | Candida albicans cell lysate | 1 µM | reference: DMSO | log2 fold change | -3.21
CCCNc1nc(Nc2ccc(C#N)cc2)ncc1C#CCCCNC(=O)[C@H](C)N(C)C(=O)/C=C/CN(C)C |  | human | oral, 75 mg twice daily, after cycle one |  | marrow blasts | 10%
Cc1cc(F)cc2c(CCC(=O)N[C@@H]3C(=O)NC[C@H]3O)c(-c3ccc(F)cc3)[nH]c12 |  | mice, APOL1 G2, single copy | oral, 30 mg/kg twice daily, day 12, dosing from day 6, together with: IFNγ plasmid injection |  | UACR | 677 µg/mg
Cc1ccc(C(=O)OCc2ccc([C@@H](CN)C(=O)Nc3ccc4cnccc4c3)cc2)c(C)c1 | tonometry | NZW rabbit, magnetic bead-induced ocular hypertension | ocular, 0.02%, 28 h |  | IOP | 33.8 mmHg
OC(CCN1CCCCC1)(c1ccccc1)C1CC2C=CC1C2 (stereo not drawn) | resting-state EEG | healthy elderly humans | oral, 4 mg, eyes closed, LS mean | reference: baseline | change, EEG Alpha power, in O1-Pz | -25.8%
O=S(=O)(Nc1nccs1)c1ccc(N=NN(O)c2ccccc2)cc1 | carrageenan-induced paw edema | Wistar rat | oral, 100 mg/kg, 1 h after carrageenan, together with: carrageenan 1% subplantar | higher = more edema | paw edema volume | 6.52 ± 1.72 a.u.
N#Cc1ccc2c(c1)[C@H]1CCCN(C(=O)c3ccc4[nH]cnc4c3)[C@H]1C2 | measured: Triglycerides | human, Phase II trial | oral, 240 mg once daily, day 28, adjusted mean, SE |  | change from baseline | -37.5 mg/dL
COc1cc(Nc2ncc3c(n2)-c2ccc(Cl)cc2C(c2c(F)cccc2OC)=NC3)ccc1C(=O)O |  | mouse, OS-1 osteosarcoma xenograft | oral, 5.2 mg/kg, day 21 | reference: vehicle | relative tumour volume T/C | 1.97
CC(C)C[C@H](NC(=O)[C@@H](Cc1c[nH]c2ccccc12)NC(=O)[C@H](Cc1ccc(O)cc1)NC(=O)[C@H](CO)NC(=O)[C@H](Cc1c[nH]c2ccccc12)NC(=O)[C@H](Cc1c[nH]cn1)NC(=O)[C@@H]1CCC(=O)N1)C(=O)N[C@@H](CCCNC(=N)N)C(=O)N1CCC[C@H]1C(=O)NCC(N)=O | Tanner staging | Chinese boys, central precocious puberty | intramuscular, 22.5 mg day 1, month 6, month 12 | reference: baseline | stable pubic hair stage | 75%
CSCCNc1nc(SCCC(F)(F)F)nc2c1ncn2[C@@H]1O[C@H](COP(=O)(O)OP(=O)(O)C(Cl)(Cl)P(=O)(O)O)[C@@H](O)[C@H]1O | platelet aggregation, light transmittance aggregometry | human, platelet-rich plasma | dose not given, 4 to 6 h, IPA above 90 %, together with: ADP 20 µM | reference: patients | patients with IPA above threshold | 0%
CCN(O)N=Nc1ccc(S(=O)(=O)Nc2nccs2)cc1 | carrageenan-induced paw edema | Wistar rat | oral, 100 mg/kg, 4 h after carrageenan, together with: carrageenan 1% subplantar | higher = more edema | paw edema volume | 4.61 ± 1.43 a.u.

SMILES | test | system | setting | how to read | measurement | value
CC(C)NCC(O)c1ccc(O)c(O)c1 (stereo not drawn) |  | ventricular cardiomyocytes, C57BL/6 mouse | dose not given, 0.128 s |  | sarcomere length | 1.66 µm
Cc1cc(NS(=O)(=O)c2ccc(N=NN(C)O)cc2)no1 | carrageenan-induced paw edema | Wistar rat | oral, 100 mg/kg, 0 h (baseline), together with: carrageenan 1% subplantar | higher = more edema | paw edema volume | 3.49 ± 0.56 a.u.
CCc1c(C)nc(-c2ccc(Cl)s2)nc1Nc1ccc(CC(=O)O)cc1 |  | C57BL/6J mice, high-fat diet, brown adipose tissue | intraperitoneal, 0.3 mg/kg daily, 60% fat diet 12 weeks, dosed last four | reference: vehicle | UCP1-positive area | increased
CC[C@H](C)[C@H](NC(=O)[C@H](CCC(=O)O)NC(=O)[C@H](C)NC(=O)[C@@H](NC(=O)[C@H](Cc1c[nH]cn1)NC(=O)[C@H]1CCC[C@@H]1NC(=O)[C@H](CCC(=O)O)NC(=O)[C@H](C)NC(=O)[C@H]1CCC[C@@H]1NC(=O)[C@H](CC(C)C)NC(=O)[C@H](Cc1c[nH]cn1)NC(=O)[C@H](Cc1c[nH]cn1)NC(=O)[C@H]1CCC[C@@H]1NC(=O)[C@H](Cc1ccccc1)NC(=O)[C@H](Cc1ccccc1)NC(=O)[C@H](CCCNC(=N)N)NC(=O)[C@H](CCCNC(=N)N)NC(=O)[C@H](CCCNC(=N)N)NC(=O)[C@H]1CCC[C@@H]1NC(=O)[C@H](CC(=O)O)NC(=O)[C@H](CCC(N)=O)NC(=O)[C@@H](NC(=O)C[C@H](Cc1c[nH]c2ccccc12)NC(=O)[C@H](CCCCN)NC(=O)[C@@H](Cc1c[nH]c2ccccc12)NC(=O)[C@H](CC(C)C)NC(=O)[C@H](CC(=O)O)NC(=O)[C@H](Cc1c[nH]cn1)NC(=O)[C@H](CC(C)C)NC(=O)C[C@@H](N)CC(C)C)[C@@H](C)CC)[C@@H](C)O)C(N)=O |  | T410R-hPTH1R mouse | subcutaneous, 500 nmol/kg |  | time to recovery of blood ionized calcium | 8 h
CCCCOc1nc(N)c2c(n1)N(Cc1cccc(CN3CCCC3)c1)CC(=O)N2 |  | human, serum | concentration not given, alone or with vorinostat or cobicistat | reference: baseline | serum cytokines and CRP | no effect
O=C(O)c1cccc(-c2noc(-c3ccccc3F)n2)c1 | DCPIP reduction | K562 cell lysate | 10 µM, 60 min |  | DR activity | 0.0576 OD/min and 0.06 OD/min and 0.0531 OD/min
CN(C)C(=O)c1cc2cnc(Nc3ccc(N4CCNCC4)cn3)nc2n1C1CCCC1 | RNA-seq GSEA, measured: HALLMARK_PROTEIN_SECRETION | MB002 tumour | concentration not given, in vivo | reference: vehicle, direction not given | GSEA enrichment score | -0.267
Cc1cccc(N(O)N=Nc2ccc(S(=O)(=O)Nc3cc(C)on3)cc2)c1 | carrageenan-induced paw edema | Wistar rat | oral, 100 mg/kg, 2 h after carrageenan, together with: carrageenan 1% subplantar | higher = more edema | paw edema volume | 5.32 ± 0.48 a.u.
CC#CC(=O)N[C@H]1CCCN(c2c(F)cc(C(N)=O)c3[nH]c(C)c(C)c23)C1 | measured: IgG | human | 0.3 mg once daily, day 21 | reference: baseline | serum immunoglobulin | 5.4 % change
COc1nc(NCc2cn(-c3ccc(NC(=O)c4ccccc4)cc3)nn2)nc(OC)n1 | cell viability, MTT | normal colonocytes, rat | 72 h |  | IC50 | 58.4 ± 8.22 nM
CCO[C@H]1CCN(Cc2c(OC)cc(C)c3[nH]ccc23)[C@H](c2ccc(C(=O)O)cc2)C1 |  | PNH patients, blood | oral, 25 mg then 100 mg, week 12, mean percent change | reference: baseline | PNH RBC clone size | 168%
CO[C@H]1CC[C@H](N2C(=O)CNc3ncc(-c4ccc(C(C)(C)O)nc4)nc32)CC1 | flow cytometry | stimulated T cells, human, blood | 30 mg single dose, 1.5 h, median | reference: baseline | p4EBP1 change from baseline | -37.1%
C=CC[C@@H]1c2ccc(OC)c(OC)c2CN2CCc3cc4c(cc3[C@H]12)OCO4 |  | P2rx7+/+ mouse, S. aureus wound infection | dose not given, day 0 | reference: day 0 | relative wound size | 1
CN(O)N=Nc1ccc(S(=O)(=O)Nc2nccs2)cc1 | carrageenan-induced paw edema | Wistar rat | oral, 100 mg/kg, 0 h (baseline), together with: carrageenan 1% subplantar | higher = more edema | paw edema volume | 3.21 ± 0.82 a.u.
C[C@@H](NC(=O)N1C(=O)[C@H](Cc2ccnc(N)c2)[C@H]1C(=O)O)C1CCCCC1 |  | human | iv infusion, 1.0 mg/kg/h, 24 h |  | time to aPTT Emax | 24 h
C=CCn1c(=O)c2cnc(Nc3ccc(N4CCN(C)CC4)cc3)nc2n1-c1ccc2c(n1)[C@@](O)(CC)CC2 |  | SW837, NOD/SCID mice, xenograft | oral, 80 mg/kg once daily, day 35 | reference: vehicle | tumour volume difference | 328 ± 31.1 mm3
COc1cc2cc(-c3ccc(CC(=O)Nc4cc(C(C)(C)C(F)(F)F)no4)cn3)cnc2cc1OC | RECIST v1.1 | RET-altered advanced solid tumour patients | oral, 100 mg once daily, phase I |  | stable disease as best response | 33%
Cc1cccc(N(O)N=Nc2ccc(S(=O)(=O)Nc3onc(C)c3C)cc2)c1 | carrageenan-induced paw edema | Wistar rat | oral, 100 mg/kg, 1 h after carrageenan, together with: carrageenan 1% subplantar | higher = more edema | paw edema volume | 5.3 ± 0.91 a.u.
COc1c(C)cnc(Cn2cc(C#CCCOP(=O)(O)O)c3c(Cl)nc(N)nc32)c1C | measured: HER-2 extracellular domain | human patients, serum | ≥48 mg/m^2 |  | serum HER-2 ECD level | decreased

Repeated from above:
SMILES | test | system | setting | how to read | measurement | value
CCc1cc(-c2noc(-c3cc(OC)nc(C4CCCC4)c3)n2)cc(C)c1OC[C@@H](O)CO |  | Wistar rats, blood | oral gavage, 0.1 10 mg/kg |  | maximal lymphocyte count reduction | 2570 ± 90 lymphocytes/µL
CN[C@@H]1C[C@H]2O[C@@](C)([C@@H]1OC)n1c3ccccc3c3c4c(c5c6ccccc6n2c5c31)C(=O)NC4 |  | 5TGM1, mouse |  |  | apoptosis-inducing concentration | > 1 µM
